Measured values gathered from unrelated publications.
Numbered parts are unrelated; each lists some results of a single study. Positions count from the first letter of the parent shown.

Block 1 — method: DHFR PCA, deep sequencing; matrix: yeast; together with: (+)-ABA 0.032 µM; reference: wild-type fitted maximum; direction: higher = stronger binding
Target: ABI1, truncated, D143A, DHFR fusion (Arabidopsis thaliana)
Notes: methotrexate growth selection, single substitutions
Parent: PYL1, truncated, DHFR fusion (Arabidopsis thaliana); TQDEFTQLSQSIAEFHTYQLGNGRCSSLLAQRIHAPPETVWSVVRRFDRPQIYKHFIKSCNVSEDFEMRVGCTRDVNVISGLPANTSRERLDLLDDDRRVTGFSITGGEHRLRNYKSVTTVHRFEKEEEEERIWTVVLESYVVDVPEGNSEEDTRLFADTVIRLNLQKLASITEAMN; partner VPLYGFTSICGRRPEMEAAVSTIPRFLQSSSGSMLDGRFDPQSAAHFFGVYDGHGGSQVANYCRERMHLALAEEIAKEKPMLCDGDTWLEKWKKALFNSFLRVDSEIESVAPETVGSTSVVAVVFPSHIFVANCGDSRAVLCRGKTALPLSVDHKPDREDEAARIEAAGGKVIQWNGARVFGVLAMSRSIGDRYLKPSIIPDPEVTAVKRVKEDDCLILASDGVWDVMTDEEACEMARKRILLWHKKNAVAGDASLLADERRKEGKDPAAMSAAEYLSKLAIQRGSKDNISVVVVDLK
| Change | relative binding score |
| --- | --- |
| F15V | -1.59% |
| Y115N | 4.21% |
| A170W | -9.45% |
| E139L | 0.939% |
| Y18G | -3.74% |
| R74M | -7.76% |
| S87N | -2.89% |
| E152M | 5.77% |
| T135P | 0.318% |
| E128R | 12.5% |
| N61I | 41.8% |
| T1V | 34.7% |
| S104C | 4.3% |
| L29K | -0.139% |

Block 2 — method: protein-binding microarray; form: double-stranded DNA, one strand shown; matrix: in vitro; concentration: 2200 nM top; notes: 60-bp whole probe; together with: salmon DNA 0.4 mg/ml; reference: random background probes; direction: higher = stronger binding; shared flanks, not repeated: GCCTAGCAC … GTCTTGATTCGCTTGACGCTGCTG
Target: Interferon regulatory factor 7, full length, phosphomimetic (IRF7, Homo sapiens, UniProt Q92985, residues 1-503, S471D/S472D/S475D/S476D/S477D/S483D/S484D/S487D)
Sequence of UniProt Q92985 (whole entry, unmodified, looked up): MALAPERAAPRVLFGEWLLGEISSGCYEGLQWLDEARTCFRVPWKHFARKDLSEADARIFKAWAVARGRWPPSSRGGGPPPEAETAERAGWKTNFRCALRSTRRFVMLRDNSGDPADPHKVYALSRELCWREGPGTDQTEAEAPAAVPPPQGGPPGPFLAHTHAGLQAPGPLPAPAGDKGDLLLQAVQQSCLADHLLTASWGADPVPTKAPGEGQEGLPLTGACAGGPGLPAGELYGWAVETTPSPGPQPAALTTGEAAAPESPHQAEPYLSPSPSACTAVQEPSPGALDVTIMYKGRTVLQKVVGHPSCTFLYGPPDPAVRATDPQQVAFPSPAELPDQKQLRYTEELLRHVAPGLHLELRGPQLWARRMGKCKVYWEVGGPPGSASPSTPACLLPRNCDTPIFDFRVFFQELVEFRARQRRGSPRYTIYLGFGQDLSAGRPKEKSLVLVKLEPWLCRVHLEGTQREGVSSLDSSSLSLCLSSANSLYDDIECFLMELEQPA
| Oligonucleotide | fitted relative affinity [z-score] |
| --- | --- |
| TTAGGATCCCTTTTCCTTTAGTGCTAG | 2.15 |
| TAGGGACTCGGGTCTCCCTTGGTGCTA | -0.514 |
| TTAGGTTTCCTTCTCCTTTAGTGCTAG | 2.36 |
| TTAGATTCCAGTCTCGATTAGTGCTAG | 1.13 |
| GACGGACTGGACTTTCGTGACGTGCTA | 1.06 |
| TAAGATATCAGTATCGATTAGTGCTAG | 0.215 |
| GACGGTATCGACACTGGGCACGTGCTA | -0.457 |
| TTAGGTATCCTTATCCCTTAGTGCTAG | 1.43 |
| TAACTTTCCAATTGTCCTTTCGTGCTA | 5.39 |
| CACGGTCTCGGTTTCGGGACGTGCTAG | 3.6 |
| TTAGGACTGTTTATCCTTTAGTGCTAG | 0.534 |
| TTAGGACTGGGACTCGGTTAGTGCTAG | -0.299 |
| TTAGCTATCGGTTTCGGTTAGTGCTAG | 6.86 |
| TTAGATTCCGGGTTTCGATTAGTGCTA | 4.13 |
| TTAGGTTTCGACTGTCGGTTAGTGCTA | 3.13 |
| TCACTTATGATATATATAACTGTGCTA | 0.554 |
| GACGGTATCGGGTGTCGGGACGTGCTA | -0.486 |
| TCACATCTCATATAAATAACTGTGCTA | 0.886 |
| TACGATATCAGACTGGAGACGTGCTAG | -0.00861 |

Block 3 — method: protein binding microarray; form: double-stranded DNA, one strand shown; matrix: in vitro; concentration: not given; reference: not given; direction: higher = stronger binding
Target: Histone acetyltransferase KAT6A, winged helix 1, GST fusion (KAT6A, Homo sapiens, UniProt Q92794, residues 1-85)
Notes: 8-mer, flanks averaged, mean of 2 arrays, mostly near background
Residues (chain): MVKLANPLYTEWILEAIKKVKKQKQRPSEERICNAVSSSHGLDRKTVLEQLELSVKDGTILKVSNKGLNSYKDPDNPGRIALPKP
| Oligonucleotide | E-score |
| --- | --- |
| AACTGCAG | -0.194 |
| AAGTTTGT | -0.209 |
| ATACCGGG | 0.224 |
| ACGTGCCT | -0.215 |
| ATATAGCC | -0.0057 |
| GAGCTGGC | -0.239 |
| AATCAAGA | -0.148 |
| CGCCTCAC | 0.0969 |
| GCCTAACA | -0.05 |
| ACCCACTC | -0.0523 |
| GGCTACAA | -0.0469 |
| CGGACGCC | 0.338 |
| GACCAGCA | -0.111 |
| ATGAAAAT | -0.226 |
| CCGTTCCG | 0.369 |
| AGCAAAAT | -0.103 |
| GGATAAGA | 0.00175 |
| TTCCAAAA | -0.268 |
| AGATTTCC | -0.0466 |
| CTGATAAG | -0.169 |
| ATACTCAG | 0.0412 |
| GAACGGTA | 0.129 |
| ATAGTTGA | -0.085 |
| GCACTAGA | 0.0562 |
| AATGGCGT | 0.168 |

Block 4 — target: CCNE1, cyclin fold, Cln2 fusion (human); method: yeast growth competition, sequencing; matrix: yeast; notes: strong parent motif; reference: not given; direction: higher = stronger binding
Parent: INSM1 docking peptide (human); PKAIRKLHFEDEV
| Change | normalised enrichment score |
| --- | --- |
| PKAIQKLHFEDEV [R5Q] | 0.344 |
| PKAIRKTHFEDEV [L7T] | -0.0313 |
| PHAIRKLHFEDEV [K2H] | 4.63 |
| PKAIRKLHREDEV [F9R] | -0.11 |
| PYAIRKLHFEDEV [K2Y] | 3.67 |
| PKAIRKLAFEDEV [H8A] | 3.55 |
| PKAIRKLHYEDEV [F9Y] | 0.897 |
| PKAIIKLHFEDEV [R5I] | 0.14 |
| PKAIRKLHFEDGV [E12G] | 3.53 |
| PKAIEKLHFEDEV [R5E] | 0.184 |
| PKAIRALHFEDEV [K6A] | 2.63 |
| PSAIRKLHFEDEV [K2S] | 5.12 |
| PKAIRKVHFEDEV [L7V] | 0.504 |
| PKAIRKLHFENEV [D11N] | 3.14 |
| PKAIRKLHFDDEV [E10D] | 4.65 |
| PKAIRKLHQEDEV [F9Q] | -0.0988 |
| PKAIRKLYFEDEV [H8Y] | 5.44 |
| PKAIRKLHFIDEV [E10I] | 1.88 |
| PKAIRKLHFETEV [D11T] | 3.16 |
| PKIIRKLHFEDEV [A3I] | 1.03 |
| PKAIRKLHFKDEV [E10K] | 1.68 |
| PKAIRKLHDEDEV [F9D] | -0.225 |
| PKAIRVLHFEDEV [K6V] | 4.24 |
| PKAIRKLFFEDEV [H8F] | 5.86 |
| PKANRKLHFEDEV [I4N] | 2.58 |

For quick reference, copied from above (block 1):
| Change | relative binding score |
| --- | --- |
| Y115N | 4.21% |
| L29K | -0.139% |
| S104C | 4.3% |
| T1V | 34.7% |
| R74M | -7.76% |
